Assay results from different studies.
Every numbered part comes from another study and shows a few of its results, in no order.

Series 1
Target: Sal-like protein 4, full length isoform B (SALL4, Homo sapiens, UniProt Q9UJQ4-2, residues 1-616)
Method: universal PBM
Molecule type: double-stranded DNA, one strand shown
Medium: in vitro
Tested at: not given
Setting: 8-mer, flanks averaged, mean of replicates
Reading: higher = stronger binding
Construct (chain): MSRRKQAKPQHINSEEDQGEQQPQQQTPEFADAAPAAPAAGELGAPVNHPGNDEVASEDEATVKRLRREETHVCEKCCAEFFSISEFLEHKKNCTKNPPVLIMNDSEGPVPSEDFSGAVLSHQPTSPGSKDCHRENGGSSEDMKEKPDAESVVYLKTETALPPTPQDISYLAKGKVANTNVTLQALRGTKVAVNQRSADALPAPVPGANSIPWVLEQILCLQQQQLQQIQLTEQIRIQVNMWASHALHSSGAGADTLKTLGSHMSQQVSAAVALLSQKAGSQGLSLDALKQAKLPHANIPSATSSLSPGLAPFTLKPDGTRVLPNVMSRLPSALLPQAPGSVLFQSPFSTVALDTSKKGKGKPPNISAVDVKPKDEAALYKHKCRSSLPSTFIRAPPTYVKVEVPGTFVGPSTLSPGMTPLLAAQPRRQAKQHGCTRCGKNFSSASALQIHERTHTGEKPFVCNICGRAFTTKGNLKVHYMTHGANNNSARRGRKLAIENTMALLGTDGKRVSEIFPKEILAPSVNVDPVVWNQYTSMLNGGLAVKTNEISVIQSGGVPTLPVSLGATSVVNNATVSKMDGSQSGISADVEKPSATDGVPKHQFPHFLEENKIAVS
Strand | E-score
GAGTTTAC | 0.0178
GTGGAAAA | 0.141
CGGATCAG | -0.278
AGCTCCAG | -0.298

Series 2
Target: Histone acetyltransferase KAT6A, winged helix 1, GST fusion (KAT6A, Homo sapiens, UniProt Q92794, residues 1-85)
Method: protein binding microarray
Molecule type: double-stranded DNA, one strand shown
Medium: in vitro
Tested at: not given
Setting: 8-mer, flanks averaged, mean of 2 arrays, mostly near background
Baseline: not given
Reading: higher = stronger binding
Residues (chain): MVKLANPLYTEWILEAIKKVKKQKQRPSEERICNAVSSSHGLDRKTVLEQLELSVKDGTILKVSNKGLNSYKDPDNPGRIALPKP
Strand | E-score
ACGTATCG | 0.0791
GCGCCTAC | 0.264
ACTTTAGA | -0.202

Further values, each from its own experiment
Molecule | target | test | system | conditions | scale | quantity | result
AUCCAU | TAR DNA-binding protein 43, full length, His tag (TARDBP, Homo sapiens, UniProt Q13148, residues 1-414) | RNA Bind-n-Seq | RNA, in vitro | 20 nM, 6-mer, flanks averaged, single round, with: 150 mM LiCl | baseline: input library, higher = stronger binding | 6-mer enrichment (R) | 0.856
PhoQ, residues 284 288 289 292 302 303 TYGVAM | PhoP, residues 12 14 15 18 19 TTLRV (Escherichia coli, UniProt P23836) | Sort-seq, measured: YFP reporter | E. coli | PhoQ-PhoP variant library, with: 10 µM Mg2+ | baseline: high Mg2+ state, higher = stronger signaling | fold induction | 8.03

Excerpt of the above (series 2):
Strand | E-score
ACTTTAGA | -0.202
